Assay results from different studies.
Each numbered part is a random draw from the data of one study; scales do not carry over between parts. Changes are numbered by the printed parent chain.

Sample 1 — read-out: cell-free assay; method: competition with immobilised ligand; concentration: 1 µM
Compound: CN(C)c1ncnc(-c2ccc3nc(Nc4cc(CN5CCN(C(=O)CC(F)(F)F)CC5)ccn4)[nH]c3c2)c1Cl
The remaining binding was 82% (Cyclin-G-associated kinase (GAK, Homo sapiens, UniProt O14976)).
It gave 100% for remaining binding (Calcium/calmodulin-dependent protein kinase type II subunit beta (CAMK2B, Homo sapiens, UniProt Q13554)).
It gave 100% for remaining binding (Vascular endothelial growth factor receptor 1 (FLT1, Homo sapiens, UniProt P17948)).
It gave 100% for remaining binding (Phosphatidylinositol 3-kinase catalytic subunit type 3 (PIK3C3, Homo sapiens, UniProt Q8NEB9)).
Ephrin type-A receptor 1 (EPHA1, Homo sapiens, UniProt P21709) — remaining binding: 100%.
Epidermal growth factor receptor (EGFR, Homo sapiens, UniProt P00533, A750P/del747-749) — remaining binding: 100%.
The remaining binding was 71% (Tyrosine-protein kinase JAK3, JH1 (JAK3, Homo sapiens, UniProt P52333)).
Receptor-type tyrosine-protein kinase FLT3 (FLT3, Homo sapiens, UniProt P36888, K663Q) — remaining binding: 81%.
It gave 100% for remaining binding (Calcium/calmodulin-dependent protein kinase type 1 (CAMK1, Homo sapiens, UniProt Q14012)).
Tyrosine-protein kinase ABL1, phosphorylated (ABL1, Homo sapiens, UniProt P00519, Y253F) — remaining binding: 37%.
For Aurora kinase A (AURKA, Homo sapiens, UniProt O14965): remaining binding read 84%.
Dual specificity protein kinase CLK2 (CLK2, Homo sapiens, UniProt P49760) — remaining binding: 90%.
The remaining binding was 84% (Serine/threonine-protein kinase Nek4 (NEK4, Homo sapiens, UniProt P51957)).
Serine/threonine-protein kinase WNK4 (WNK4, Homo sapiens, UniProt Q96J92) — remaining binding: 53%.
It gave 100% for remaining binding (Proto-oncogene tyrosine-protein kinase receptor Ret (RET, Homo sapiens, UniProt P07949, M918T)).
It gave 97% for remaining binding (Interleukin-1 receptor-associated kinase 3 (IRAK3, Homo sapiens, UniProt Q9Y616)).
For Cyclin-dependent kinase 2 (CDK2, Homo sapiens, UniProt P24941): remaining binding read 100%.
The remaining binding was 100% (Homeodomain-interacting protein kinase 3 (HIPK3, Homo sapiens, UniProt Q9H422)).
The remaining binding was 100% (cAMP-dependent protein kinase catalytic subunit PRKX (PRKX, Homo sapiens, UniProt P51817)).
For Aurora kinase B (AURKB, Homo sapiens, UniProt Q96GD4): remaining binding read 85%.

Sample 2 — target: CCNB3, cyclin fold, Cln2 fusion (human); method: yeast growth competition, sequencing; medium: yeast; setting: strong parent motif; baseline: not given; direction: higher = stronger binding
Starting sequence: SCAPER docking peptide (human); SNARRSLNFGGST; partner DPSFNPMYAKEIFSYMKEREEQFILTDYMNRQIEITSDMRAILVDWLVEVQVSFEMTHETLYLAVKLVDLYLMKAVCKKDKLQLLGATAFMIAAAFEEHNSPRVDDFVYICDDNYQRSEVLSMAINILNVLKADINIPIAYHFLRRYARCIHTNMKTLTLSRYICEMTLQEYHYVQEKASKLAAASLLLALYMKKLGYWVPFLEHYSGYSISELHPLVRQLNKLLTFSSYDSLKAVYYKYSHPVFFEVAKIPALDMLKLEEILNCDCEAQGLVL
`SNARRSLNFGGAT [S12A]`: “normalised enrichment score” 1.65.
For `SNARRSLNFTGST [G10T]`, “normalised enrichment score” read 1.1.
Under “normalised enrichment score”, `SNARRQLNFGGST [S6Q]` is recorded as 0.951.
`SIARRSLNFGGST [N2I]` — result for “normalised enrichment score”: 1.39.
`SNAPRSLNFGGST [R4P]`: “normalised enrichment score” 0.0789.
For `SNAFRSLNFGGST [R4F]`, “normalised enrichment score” read 0.0255.
`SNARRSLNFGGSN [T13N]` — result for “normalised enrichment score”: 1.58.
For `SNARRSLNFGDST [G11D]`, “normalised enrichment score” read 1.58.

Sample 3 — read-out: enzyme activity; mode: inhibitor; concentration: 0.5 µM; baseline: control
Target: Cyclin-dependent kinase 2, with cyclin A (CDK2, Homo sapiens, UniProt P24941)
With `CCCCc1c(-c2ccc(OC)cc2)[nH]c2nccnc12` the remaining activity was 36.3%.
`Cc1ccc(S(=O)(=O)/C=C/C#N)cc1` has a remaining activity of 98%.
The remaining activity of `N#CC(c1ccnc(NCCc2cccnc2)n1)c1nc2ccccc2s1` (stereo not drawn) is reported as 94.4%.
The remaining activity of `O=C1NC(=O)c2c1c1c3ccccc3[nH]c1n1cncc21` is reported as 75.9%.
`Cc1cc(Nc2cc(N3CCN(C)CC3)nc(Sc3ccc(NC(=O)C4CC4)cc3)n2)[nH]n1` has a remaining activity of 87.8%.
`O=C(O)/C=C/c1cc(Br)c(Br)c(Br)c1Br` gave a remaining activity of 85.6%.
For `Nc1nc(Nc2ccc(S(N)(=O)=O)cc2)nn1C(=S)Nc1c(F)cccc1F`, the remaining activity was 1.56%.
`O=c1c(-c2ccc(F)cc2)c(-c2ccncc2)[nH]n1-c1ccc(Cl)cc1` has a remaining activity of 89.9%.
`O=Nc1c(-c2c(O)[nH]c3cc(Br)ccc23)[nH]c2ccccc12` has a remaining activity of 7.66%.
`CCN(CC)CCCCN1c2ccccc2Oc2ccc(Cl)cc21` has a remaining activity of 98.7%.
For `CN1CCN(c2ccc3nc(-c4c(N)c5c(F)cccc5[nH]c4=O)[nH]c3c2)CC1`, the remaining activity was 91%.
With `O=Nc1c(-c2c(O)[nH]c3ccccc23)[nH]c2ccccc12` the remaining activity was 29.6%.
`CCCNC(=O)Nc1ccc(Oc2ncnc3cc(OC)c(OC)cc23)cc1Cl` has a remaining activity of 92.8%.
With `O=C1NC(=O)/C(=C/c2ccc3c(c2)OC(F)(F)O3)S1` the remaining activity was 107%.
With `CN(C)S(=O)(=O)c1ccc2c(c1)/C(=C/c1cc3c([nH]1)CCCC3)C(=O)N2` the remaining activity was 90.6%.

Sample 4 — method: protein-binding microarray; form: hairpin DNA; medium: in vitro; concentration: not given; baseline: not given; direction: higher = stronger binding
Target: Cellular tumor antigen p53, full length (TP53, Homo sapiens, UniProt P04637, residues 1-393)
Setting: whole hairpin DNA, median over replicate spots
`CCACCCGTGGTGGCATGCCTTCCTAGGCATGCCACCACGGGTGGACACTC (5mC at 5)` has a median fluorescence of 6660 a.u.
`CGGACATGCGCGGGCATGTCTCCTGACATGCCCGCGCATGTCCGACACTC (5mC at 35)` gave a median fluorescence of 15400 a.u.
The median fluorescence of `CGGACAGGCCCGGGCATGTCTCCTGACATGCCCGGGCCTGTCCGACACTC` is reported as 16700 a.u.
`CCACACGTGGTGGGATGCCTTCCTAGGCATCCCACCACGTGTGGACACTC (5mC at 31)` has a median fluorescence of 4090 a.u.
For `CCACACGTGGCGGCATGCCTTCCTAGGCATGCCGCCACGTGTGGACACTC (5mC at 33)`, the median fluorescence was 6780 a.u.
`CCACACGAGGTGGCATGCCTTCCTAGGCATGCCACCTCGTGTGGACACTC` has a median fluorescence of 6730 a.u.
`CCACGCGTGGTGGCATGCCTTCCTAGGCATGCCACCACGCGTGGACACTC (5mC at 40)` has a median fluorescence of 7500 a.u.
With `CCACACGTGGTCGCATGCCTTCCTAGGCATGCGACCACGTGTGGACACTC` the median fluorescence was 5260 a.u.

For quick reference, copied from above (sample 3):
`O=Nc1c(-c2c(O)[nH]c3cc(Br)ccc23)[nH]c2ccccc12` has a remaining activity of 7.66%.
`O=C(O)/C=C/c1cc(Br)c(Br)c(Br)c1Br` gave a remaining activity of 85.6%.
For `Nc1nc(Nc2ccc(S(N)(=O)=O)cc2)nn1C(=S)Nc1c(F)cccc1F`, the remaining activity was 1.56%.
